Experimental data collected from several papers.
Numbered parts are unrelated; each lists some results of a single study.
UniProt P15735, sequence (whole entry, looked up): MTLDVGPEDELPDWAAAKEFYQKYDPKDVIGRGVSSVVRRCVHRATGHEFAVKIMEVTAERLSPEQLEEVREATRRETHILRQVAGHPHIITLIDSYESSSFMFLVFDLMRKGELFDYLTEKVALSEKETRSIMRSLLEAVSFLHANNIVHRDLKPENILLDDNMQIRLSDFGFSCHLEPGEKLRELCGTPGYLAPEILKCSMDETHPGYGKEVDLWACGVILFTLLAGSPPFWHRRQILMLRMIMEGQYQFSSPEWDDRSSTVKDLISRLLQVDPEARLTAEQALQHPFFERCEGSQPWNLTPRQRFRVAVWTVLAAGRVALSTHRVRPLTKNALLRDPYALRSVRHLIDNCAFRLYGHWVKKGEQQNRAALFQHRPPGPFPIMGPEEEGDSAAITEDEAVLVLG
UniProt Q07912, sequence (whole entry, looked up): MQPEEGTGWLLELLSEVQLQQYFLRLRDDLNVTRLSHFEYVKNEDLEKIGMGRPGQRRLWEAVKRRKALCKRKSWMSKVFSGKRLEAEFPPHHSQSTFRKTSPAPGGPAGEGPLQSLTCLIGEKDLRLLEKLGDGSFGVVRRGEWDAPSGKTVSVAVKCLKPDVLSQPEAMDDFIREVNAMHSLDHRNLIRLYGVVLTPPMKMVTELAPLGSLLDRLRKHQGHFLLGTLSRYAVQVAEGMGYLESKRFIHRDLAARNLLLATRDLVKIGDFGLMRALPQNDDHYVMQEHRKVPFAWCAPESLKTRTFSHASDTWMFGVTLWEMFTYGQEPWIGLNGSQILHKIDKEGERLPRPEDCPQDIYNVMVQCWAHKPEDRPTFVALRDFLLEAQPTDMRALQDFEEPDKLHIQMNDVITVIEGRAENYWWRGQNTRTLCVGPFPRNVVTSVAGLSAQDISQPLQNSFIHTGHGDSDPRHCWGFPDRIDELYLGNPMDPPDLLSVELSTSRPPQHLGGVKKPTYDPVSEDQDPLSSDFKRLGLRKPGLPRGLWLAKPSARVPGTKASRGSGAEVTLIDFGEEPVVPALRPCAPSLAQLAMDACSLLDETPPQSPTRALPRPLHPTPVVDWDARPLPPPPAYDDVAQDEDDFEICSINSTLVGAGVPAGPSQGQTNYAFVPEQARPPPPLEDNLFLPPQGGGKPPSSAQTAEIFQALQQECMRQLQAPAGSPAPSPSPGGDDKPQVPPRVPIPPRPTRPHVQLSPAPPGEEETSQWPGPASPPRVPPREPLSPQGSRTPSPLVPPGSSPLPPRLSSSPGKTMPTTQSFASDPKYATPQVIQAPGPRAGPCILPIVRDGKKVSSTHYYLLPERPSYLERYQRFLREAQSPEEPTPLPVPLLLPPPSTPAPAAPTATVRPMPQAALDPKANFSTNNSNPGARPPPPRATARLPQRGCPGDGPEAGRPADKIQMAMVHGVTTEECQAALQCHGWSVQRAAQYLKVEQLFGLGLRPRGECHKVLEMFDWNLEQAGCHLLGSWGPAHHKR
UniProt Q96BR1, sequence (whole entry, looked up): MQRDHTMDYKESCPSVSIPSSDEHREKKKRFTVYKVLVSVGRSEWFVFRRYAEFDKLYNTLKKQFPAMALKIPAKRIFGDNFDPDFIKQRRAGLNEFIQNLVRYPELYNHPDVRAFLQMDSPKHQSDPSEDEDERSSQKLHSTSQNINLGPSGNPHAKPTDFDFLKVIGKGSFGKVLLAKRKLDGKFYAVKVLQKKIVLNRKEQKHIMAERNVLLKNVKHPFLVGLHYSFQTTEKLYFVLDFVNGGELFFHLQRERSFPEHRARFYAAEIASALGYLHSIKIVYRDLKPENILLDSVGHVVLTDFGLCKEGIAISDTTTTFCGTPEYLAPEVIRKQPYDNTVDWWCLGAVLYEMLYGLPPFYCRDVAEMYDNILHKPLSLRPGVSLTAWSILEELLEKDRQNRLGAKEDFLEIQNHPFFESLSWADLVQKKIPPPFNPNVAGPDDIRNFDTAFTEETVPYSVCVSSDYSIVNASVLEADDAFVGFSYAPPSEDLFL
UniProt Q7L7X3, sequence (whole entry, looked up): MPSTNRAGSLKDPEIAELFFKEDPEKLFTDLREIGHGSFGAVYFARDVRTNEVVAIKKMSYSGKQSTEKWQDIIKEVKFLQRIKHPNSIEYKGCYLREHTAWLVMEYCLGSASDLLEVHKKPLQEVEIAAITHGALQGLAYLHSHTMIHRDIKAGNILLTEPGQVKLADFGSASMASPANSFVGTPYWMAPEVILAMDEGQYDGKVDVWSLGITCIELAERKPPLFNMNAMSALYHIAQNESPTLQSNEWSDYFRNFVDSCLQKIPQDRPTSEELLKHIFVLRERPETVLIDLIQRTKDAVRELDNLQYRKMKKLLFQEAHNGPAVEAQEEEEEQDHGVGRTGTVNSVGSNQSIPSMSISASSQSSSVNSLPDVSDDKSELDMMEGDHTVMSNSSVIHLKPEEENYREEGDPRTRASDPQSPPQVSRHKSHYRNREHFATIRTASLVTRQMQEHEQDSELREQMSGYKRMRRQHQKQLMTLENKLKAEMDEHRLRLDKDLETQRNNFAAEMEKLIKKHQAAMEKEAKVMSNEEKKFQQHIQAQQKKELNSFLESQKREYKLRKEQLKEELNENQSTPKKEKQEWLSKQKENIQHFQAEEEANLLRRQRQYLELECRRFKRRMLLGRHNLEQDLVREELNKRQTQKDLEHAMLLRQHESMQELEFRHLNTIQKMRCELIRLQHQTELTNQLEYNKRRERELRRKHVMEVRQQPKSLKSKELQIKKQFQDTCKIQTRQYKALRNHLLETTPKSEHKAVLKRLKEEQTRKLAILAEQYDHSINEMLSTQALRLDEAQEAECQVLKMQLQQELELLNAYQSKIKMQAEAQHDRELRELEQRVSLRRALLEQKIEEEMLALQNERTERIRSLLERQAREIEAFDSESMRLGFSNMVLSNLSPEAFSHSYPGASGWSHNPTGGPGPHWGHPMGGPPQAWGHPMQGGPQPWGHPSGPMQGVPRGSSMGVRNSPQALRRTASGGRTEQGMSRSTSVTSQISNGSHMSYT
UniProt P35368, sequence (whole entry, looked up): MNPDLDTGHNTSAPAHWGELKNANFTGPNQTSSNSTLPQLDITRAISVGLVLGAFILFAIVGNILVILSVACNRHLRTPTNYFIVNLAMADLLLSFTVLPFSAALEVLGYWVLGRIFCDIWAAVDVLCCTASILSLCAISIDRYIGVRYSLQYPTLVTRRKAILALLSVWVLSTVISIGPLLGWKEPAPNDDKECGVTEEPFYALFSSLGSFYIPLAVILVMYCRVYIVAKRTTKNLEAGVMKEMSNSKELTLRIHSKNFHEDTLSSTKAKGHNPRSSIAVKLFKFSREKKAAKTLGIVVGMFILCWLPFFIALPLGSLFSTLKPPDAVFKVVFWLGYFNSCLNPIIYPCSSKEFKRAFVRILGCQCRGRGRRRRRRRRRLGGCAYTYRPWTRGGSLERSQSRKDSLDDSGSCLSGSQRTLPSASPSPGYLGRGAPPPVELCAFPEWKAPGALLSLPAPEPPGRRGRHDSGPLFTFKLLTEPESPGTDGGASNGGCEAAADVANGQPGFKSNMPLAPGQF
UniProt Q9Y5N1, sequence (whole entry, looked up): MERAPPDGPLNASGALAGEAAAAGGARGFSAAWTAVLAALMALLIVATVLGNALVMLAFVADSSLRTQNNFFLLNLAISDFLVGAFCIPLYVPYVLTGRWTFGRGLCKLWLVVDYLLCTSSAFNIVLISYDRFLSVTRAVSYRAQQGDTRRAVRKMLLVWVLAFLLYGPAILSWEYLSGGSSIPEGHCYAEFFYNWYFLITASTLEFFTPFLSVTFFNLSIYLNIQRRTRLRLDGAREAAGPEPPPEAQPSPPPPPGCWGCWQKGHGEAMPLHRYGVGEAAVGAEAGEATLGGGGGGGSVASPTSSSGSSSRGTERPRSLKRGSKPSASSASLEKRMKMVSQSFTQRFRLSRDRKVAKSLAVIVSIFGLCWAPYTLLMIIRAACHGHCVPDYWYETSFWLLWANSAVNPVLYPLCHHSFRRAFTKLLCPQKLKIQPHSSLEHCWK
UniProt P08588, sequence (whole entry, looked up): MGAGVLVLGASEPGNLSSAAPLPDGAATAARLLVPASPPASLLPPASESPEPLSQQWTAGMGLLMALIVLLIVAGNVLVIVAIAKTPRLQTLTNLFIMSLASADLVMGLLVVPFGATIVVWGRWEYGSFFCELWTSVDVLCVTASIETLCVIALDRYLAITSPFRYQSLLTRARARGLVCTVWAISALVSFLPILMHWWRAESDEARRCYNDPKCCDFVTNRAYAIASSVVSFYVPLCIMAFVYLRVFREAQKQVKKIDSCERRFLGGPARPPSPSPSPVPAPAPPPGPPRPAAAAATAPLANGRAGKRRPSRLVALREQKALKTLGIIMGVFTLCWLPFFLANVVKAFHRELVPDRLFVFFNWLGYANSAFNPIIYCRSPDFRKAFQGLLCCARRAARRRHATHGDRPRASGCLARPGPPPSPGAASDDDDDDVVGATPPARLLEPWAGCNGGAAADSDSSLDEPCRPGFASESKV
UniProt Q99720, sequence (whole entry, looked up): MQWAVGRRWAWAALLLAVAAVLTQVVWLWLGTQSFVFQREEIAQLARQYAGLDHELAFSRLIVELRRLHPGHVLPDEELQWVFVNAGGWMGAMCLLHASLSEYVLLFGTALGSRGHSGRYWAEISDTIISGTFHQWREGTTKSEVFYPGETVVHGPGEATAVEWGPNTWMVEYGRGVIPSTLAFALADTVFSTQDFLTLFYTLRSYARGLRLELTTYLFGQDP

Block 1
SMILES: CC(C)n1cnc(-c2ccc(F)cc2)c1-c1ncc(C(=O)Nc2ccc(N3CCN(C)CC3)cc2)[nH]1
| technique | refers to | host | route | dose | setting | patients with adverse event [%] |
| --- | --- | --- | --- | --- | --- | --- |
| Phase 2a trial | blood glucose increased | human, idiopathic pulmonary fibrosis |  | 30 mg once daily | grade 2 | 0 |
| Phase 2a trial | hypoalbuminaemia | human, idiopathic pulmonary fibrosis |  | 30 mg once daily | grade 5 | 0 |
| Phase 2a trial | hypertriglyceridaemia | human, idiopathic pulmonary fibrosis |  | 60 mg once daily | grade 3 | 0 |
| Phase 2a trial | hypoalbuminaemia | human, idiopathic pulmonary fibrosis |  | all compound arms total | grade 4 | 0 |
| Phase 2a trial | hyperuricaemia | human, idiopathic pulmonary fibrosis |  | 30 mg once daily | grade 3 | 0 |
| Phase 2a trial | blood fibrinogen increased | human, idiopathic pulmonary fibrosis |  | all compound arms total | grade 5 | 0 |
| Phase 2a trial | hypokalaemia | human, idiopathic pulmonary fibrosis |  | 60 mg once daily | grade 5 | 0 |
| Phase 2a trial | hyperlipidaemia | human, idiopathic pulmonary fibrosis |  | 30 mg once daily | grade 5 | 0 |
|  | abnormal liver function test, grade 3 | idiopathic pulmonary fibrosis patients | oral | 60 mg once daily |  | 0 |
| Phase 2a trial | blood lactate dehydrogenase increased | human, idiopathic pulmonary fibrosis |  | 30 mg once daily | grade 4 | 0 |
| Phase 2a trial | respiratory, thoracic, mediastinal disorders | human, idiopathic pulmonary fibrosis |  | 30 mg once daily | grade 2 | 0 |
| Phase 2a trial | haemorrhoids | human, idiopathic pulmonary fibrosis |  | 30 mg once daily | grade 4 | 0 |
| Phase 2a trial | eosinophilia myalgia syndrome | human, idiopathic pulmonary fibrosis |  | all compound arms | grade 5 | 0 |

Block 2 — observed: cell-free assay; concentration: 10 µM
SMILES: CCOc1cc(N2C3COCC2CN(C(=O)[C@H]2C[C@H](O)CN2c2ccc(Cl)cc2)C3)ccc1Cl
| target | inhibition |
| --- | --- |
| Alpha-1D adrenergic receptor (ADRA1D, Homo sapiens, UniProt P25100) | 7.09% |
| Histamine H3 receptor (HRH3, Homo sapiens, UniProt Q9Y5N1) | 17.3% |
| D(3) dopamine receptor (DRD3, Homo sapiens, UniProt P35462) | 1.58% |
| D(1A) dopamine receptor (DRD1, Homo sapiens, UniProt P21728) | 40.3% |
| Histamine H4 receptor (HRH4, Homo sapiens, UniProt Q9H3N8) | -13.9% |
| 5-hydroxytryptamine receptor 7 (HTR7, Homo sapiens, UniProt P34969) | -15.4% |
| Sigma non-opioid intracellular receptor 1 (SIGMAR1, Homo sapiens, UniProt Q99720) | 85% |
| Alpha-1B adrenergic receptor (ADRA1B, Homo sapiens, UniProt P35368) | -12.1% |
| Beta-3 adrenergic receptor (ADRB3, Homo sapiens, UniProt P13945) | -5.38% |
| Alpha-2B adrenergic receptor (ADRA2B, Homo sapiens, UniProt P18089) | -19.9% |
| Beta-1 adrenergic receptor (ADRB1, Homo sapiens, UniProt P08588) | -26.2% |
| Muscarinic acetylcholine receptor M5 (CHRM5, Homo sapiens, UniProt P08912) | -4.29% |

Block 3 — observed: RNA clamping; technique: fluorescence polarization; concentration: concentration not given; together with: FAM-labelled poly r(AG)8 RNA
Target: Eukaryotic initiation factor 4A-III (Homo sapiens, UniProt P38919)
UniProt P38919, sequence (whole entry, looked up): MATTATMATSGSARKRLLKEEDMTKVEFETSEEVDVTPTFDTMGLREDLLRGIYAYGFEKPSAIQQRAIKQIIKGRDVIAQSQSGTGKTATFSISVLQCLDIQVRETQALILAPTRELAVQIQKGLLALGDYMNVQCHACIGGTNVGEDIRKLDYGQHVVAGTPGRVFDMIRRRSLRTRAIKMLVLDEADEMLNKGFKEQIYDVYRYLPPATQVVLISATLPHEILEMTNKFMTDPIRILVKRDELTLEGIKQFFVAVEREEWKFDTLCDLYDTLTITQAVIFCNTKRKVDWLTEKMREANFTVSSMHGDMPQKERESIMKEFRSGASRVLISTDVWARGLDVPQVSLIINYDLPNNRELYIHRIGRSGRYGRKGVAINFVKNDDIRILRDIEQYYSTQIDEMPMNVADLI
| SMILES | fluorescence polarization change |
| --- | --- |
| COc1ccc([C@@]23Oc4cc(OC)cc(OC)c4[C@]2(O)[C@@H](O)[C@H](C(=O)c2ccco2)[C@H]3c2ccccc2)cc1 | 16.9 mP |
| COC(=O)[C@@H]1[C@@H](c2ccccc2)[C@]2(c3ccc(OC)cc3)Oc3cc(OC)cc(OC)c3[C@@]23NC(C2CCC2)=N[C@@]13O | 24.9 mP |
| COC(=O)[C@H]1C(=O)[C@@]2(NCc3nccn3C)c3c(OC)cc(OC)cc3O[C@@]2(c2ccc(OC)cc2)[C@@H]1c1ccccc1 | 2 mP |
| COC(=O)[C@@H]1[C@@H](O)[C@@]2(O)c3c(OC)cc(OS(=O)(=O)c4ccc(C)cc4)cc3O[C@@]2(c2ccc(OC)cc2)[C@H]1c1ccccc1 | -5.5 mP |
| COC(=O)[C@H]1C(=O)[C@@]2(NCc3ccccc3)c3c(OC)cc(OC)cc3O[C@@]2(c2ccc(OC)cc2)[C@@H]1c1ccccc1 | 6.2 mP |
| C#CCNC(=O)CCCn1c(-c2ccccc2)nc2c(c1=O)[C@@H](c1ccccc1)[C@]1(c3ccc(OC)cc3)Oc3cc(OC)cc(OC)c3[C@]21O | 7 mP |
| CCOCCOCCN(OC)C(=O)[C@H]1[C@@H](O)[C@@]2(O)c3c(OC)cc(OC)cc3O[C@@]2(c2ccc(OC)cc2)[C@@H]1c1ccccc1 | 10.8 mP |
| CCOC(=O)COc1cc(OC)c2c(c1)O[C@@]1(c3ccc(OC)cc3)[C@H](c3ccccc3)c3c(nc(-c4ccccc4)[nH]c3=O)[C@@]21OCC(=O)OCC | 2.2 mP |
| COc1ccc([C@]23Oc4cc(OC)cc(OC)c4[C@@]2(O)c2nc(-c4cccc(OC)c4)[nH]c(=O)c2[C@@H]3c2ccccc2)cc1 | 15 mP |
| COc1cc(OC)c2c(c1)O[C@@]1(c3ccc(Br)cc3)[C@H](c3ccccc3)[C@@H](C(=O)N(C)OC)[C@@H](O)[C@@]21O | 43 mP |
| O[C@H]1C[C@@H](c2ccccc2)[C@]2(c3ccc(Cl)cc3)Oc3cc(OCCN4CCCC4)ccc3[C@]12O | 73.6 mP |
| C#CCOCCOCCNC(=O)CCCn1c(-c2ccccc2)nc2c(c1=O)[C@@H](c1ccccc1)[C@]1(c3ccc(OC)cc3)Oc3cc(OC)cc(OC)c3[C@]21O | 17.6 mP |
| COc1ccc([C@]23[C@H](c4ccccc4)C[C@@H](O)[C@@]2(O)c2c(F)cccc2N3C)cc1 | -0.8 mP |

Block 4 — Compound: CCCCc1c(-c2ccc(OC)cc2)[nH]c2nccnc12; observed: enzyme activity; mode: inhibitor; concentration: 0.5 µM; reference: control
| target | remaining activity |
| --- | --- |
| Serine/threonine-protein kinase VRK1 (VRK1, Homo sapiens, UniProt Q99986) | 95.5% |
| Phosphorylase b kinase gamma catalytic chain, liver/testis isoform (PHKG2, Homo sapiens, UniProt P15735) | 106% |
| Receptor-interacting serine/threonine-protein kinase 2 (RIPK2, Homo sapiens, UniProt O43353) | 71% |
| Mitogen-activated protein kinase kinase kinase kinase 5 (MAP4K5, Homo sapiens, UniProt Q9Y4K4) | 63.8% |
| Activated CDC42 kinase 1 (TNK2, Homo sapiens, UniProt Q07912) | 51.2% |
| RAF proto-oncogene serine/threonine-protein kinase (RAF1, Homo sapiens, UniProt P04049) | 99.9% |
| Platelet-derived growth factor receptor beta (PDGFRB, Homo sapiens, UniProt P09619) | 95.9% |
| Serine/threonine-protein kinase PLK1 (PLK1, Homo sapiens, UniProt P53350) | 104% |
| Serine/threonine-protein kinase D3 (PRKD3, Homo sapiens, UniProt O94806) | 88.5% |
| Activin receptor type-1 (ACVR1, Homo sapiens, UniProt Q04771) | 86.9% |
| Dual specificity tyrosine-phosphorylation-regulated kinase 2 (DYRK2, Homo sapiens, UniProt Q92630) | 92.9% |
| BDNF/NT-3 growth factors receptor (NTRK2, Homo sapiens, UniProt Q16620) | 73.4% |
| Serine/threonine-protein kinase ULK1 (ULK1, Homo sapiens, UniProt O75385) | 87.9% |
| Mitogen-activated protein kinase kinase kinase 9 (MAP3K9, Homo sapiens, UniProt P80192) | 39.8% |
| Fibroblast growth factor receptor 2 (FGFR2, Homo sapiens, UniProt P21802) | 89.5% |
| Serine/threonine-protein kinase TAO1 (TAOK1, Homo sapiens, UniProt Q7L7X3) | 87% |
| Insulin receptor-related protein (INSRR, Homo sapiens, UniProt P14616) | 83.2% |
| Dual serine/threonine and tyrosine protein kinase (DSTYK, Homo sapiens, UniProt Q6XUX3) | 97.6% |
| Serine/threonine-protein kinase Sgk3 (SGK3, Homo sapiens, UniProt Q96BR1) | 98.6% |
| Tyrosine-protein kinase HCK (HCK, Homo sapiens, UniProt P08631) | 94.4% |

Excerpt of the above (block 1):
| technique | refers to | host | route | dose | setting | patients with adverse event [%] |
| --- | --- | --- | --- | --- | --- | --- |
| Phase 2a trial | hyperlipidaemia | human, idiopathic pulmonary fibrosis |  | 30 mg once daily | grade 5 | 0 |
| Phase 2a trial | blood fibrinogen increased | human, idiopathic pulmonary fibrosis |  | all compound arms total | grade 5 | 0 |
| Phase 2a trial | hyperuricaemia | human, idiopathic pulmonary fibrosis |  | 30 mg once daily | grade 3 | 0 |
| Phase 2a trial | blood lactate dehydrogenase increased | human, idiopathic pulmonary fibrosis |  | 30 mg once daily | grade 4 | 0 |
| Phase 2a trial | hypokalaemia | human, idiopathic pulmonary fibrosis |  | 60 mg once daily | grade 5 | 0 |
| Phase 2a trial | blood glucose increased | human, idiopathic pulmonary fibrosis |  | 30 mg once daily | grade 2 | 0 |
